Experimental data collected from several papers.
Parts stem from different laboratories: compare values within a part only. Substitutions count along the parent as printed.

Block 1 — technique: aptamer microarray, sandwich; form: DNA with 2'F-ANA; medium: in vitro; concentration: 200 nM; added: Cy3 exosite-II aptamer, 400 nM; direction: higher = stronger binding; oligonucleotide: GGTTGGTGTGGTTGG
Target: Prothrombin, mature alpha-thrombin (F2, Homo sapiens, UniProt P00734)
Notes: whole 15-mer aptamer, many near background
Modification | mean fluorescence intensity [a.u.]
2'F-ANA at 1 2 3 4 5 8 9 10 11 13 14 | 56.2
2'F-ANA at 4 7 8 9 10 12 14 | 74.8
2'F-ANA at 4 5 7 8 9 10 11 12 15 | 51.2
2'F-ANA at 1 2 4 9 11 12 | 225
2'F-ANA at 1 5 9 10 12 | 46.4
2'F-ANA at 2 3 5 11 13 | 78.2
2'F-ANA at 2 4 6 9 12 | 578
2'F-ANA at 1 4 5 6 7 10 12 14 15 | 47.4
2'F-ANA at 1 4 5 6 7 9 13 15 | 54.3
2'F-ANA at 1 2 6 7 9 11 12 14 | 54.8
2'F-ANA at 3 4 10 15 | 332
2'F-ANA at 1 3 4 5 6 7 8 9 10 11 13 14 15 | 54
2'F-ANA at 1 4 5 6 7 8 10 12 | 50.2

Block 2 — technique: universal PBM; form: double-stranded DNA, one strand shown; medium: in vitro; concentration: 600 nM; direction: higher = stronger binding
Target: Sal-like protein 4, full length isoform A (SALL4, Homo sapiens, UniProt Q9UJQ4, residues 1-1053)
Sequence of UniProt Q9UJQ4 (whole entry, looked up): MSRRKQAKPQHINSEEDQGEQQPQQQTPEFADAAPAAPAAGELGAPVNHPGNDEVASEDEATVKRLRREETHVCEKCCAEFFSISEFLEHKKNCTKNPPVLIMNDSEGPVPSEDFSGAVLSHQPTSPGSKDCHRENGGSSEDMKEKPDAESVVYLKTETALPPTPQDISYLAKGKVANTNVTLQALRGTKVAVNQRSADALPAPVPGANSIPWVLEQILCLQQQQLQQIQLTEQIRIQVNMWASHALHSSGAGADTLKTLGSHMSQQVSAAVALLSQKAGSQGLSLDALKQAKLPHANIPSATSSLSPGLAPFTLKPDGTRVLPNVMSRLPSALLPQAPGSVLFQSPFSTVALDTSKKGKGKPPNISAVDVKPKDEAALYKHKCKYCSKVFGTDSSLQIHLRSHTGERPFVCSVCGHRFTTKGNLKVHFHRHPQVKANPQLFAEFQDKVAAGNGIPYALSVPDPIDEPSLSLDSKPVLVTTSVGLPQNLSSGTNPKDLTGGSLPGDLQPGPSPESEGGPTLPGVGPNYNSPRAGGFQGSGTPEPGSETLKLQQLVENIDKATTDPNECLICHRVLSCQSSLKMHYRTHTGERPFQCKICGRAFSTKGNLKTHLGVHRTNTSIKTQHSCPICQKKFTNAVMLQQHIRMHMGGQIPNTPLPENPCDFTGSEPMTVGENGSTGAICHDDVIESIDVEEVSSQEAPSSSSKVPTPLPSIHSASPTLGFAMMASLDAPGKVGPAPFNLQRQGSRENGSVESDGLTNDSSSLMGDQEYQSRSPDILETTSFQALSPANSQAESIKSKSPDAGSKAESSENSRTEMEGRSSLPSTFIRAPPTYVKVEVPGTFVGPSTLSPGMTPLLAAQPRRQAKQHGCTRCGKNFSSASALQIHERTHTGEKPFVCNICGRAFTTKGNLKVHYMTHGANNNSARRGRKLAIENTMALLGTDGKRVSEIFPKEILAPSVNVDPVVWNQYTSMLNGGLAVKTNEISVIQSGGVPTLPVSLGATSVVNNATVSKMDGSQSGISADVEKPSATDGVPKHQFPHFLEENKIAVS
Notes: 8-mer, flanks averaged, mean of replicates
Oligonucleotide | E-score
GACAAGAC | -0.0998
GCAAGCAA | 0.0976
ATTTCACC | 0.152
CATGGCCC | -0.238
ACGTGGCA | -0.214
CTTACCAC | -0.035
AGGCGCAA | 4e-05
ACCCCAAT | -0.0379
AAAAAACA | 0.294
CCCTGGTC | -0.33
CAATGACG | -0.00739
AAGACAGT | -0.0616
ACTGGTCG | -0.257
CTGCAACC | -0.221
GTCCGCCA | -0.221
CTAATTCA | 0.322
AGGGCTAA | -0.0238
ACTATTCC | 0.11

Block 3 — technique: protein binding microarray; form: double-stranded DNA, one strand shown; medium: in vitro; concentration: not given; reference: not given; direction: higher = stronger binding
Target: Histone acetyltransferase KAT6A, winged helix 1, GST fusion (KAT6A, Homo sapiens, UniProt Q92794, residues 1-85)
Notes: 8-mer, flanks averaged, mean of 2 arrays, mostly near background
Construct (chain): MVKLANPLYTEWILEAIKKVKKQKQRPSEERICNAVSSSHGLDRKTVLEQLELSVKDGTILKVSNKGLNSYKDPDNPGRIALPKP
Oligonucleotide | E-score
AGATCATA | -0.109
AATTCGCG | 0.232
AGTCGCGG | 0.348
ACTCATCT | -0.293
ACAAGGGC | -0.0594
AATGGGGA | -0.178
CAAGGATC | -0.0898
GCTTTCCC | 0.0463
ATACGGAT | 0.126
ATTCGAGG | -0.151
AGGTGCAG | -0.163
GGAAGAAC | 0.0171
GGACGACA | -0.106
AGAGGTAG | -0.266
TAAGCCCA | -0.203
AAATCCCT | -0.0365
CATCCGGC | 0.157
ACCGGGAC | 0.324
CTGCCGCC | 0.401
CAAATCGC | 0.00302
ATACCGAG | 0.0142
AGTTAGAC | 0.0094
TATATAAA | -0.076
AGATCCAC | -0.207
ACACCGCT | 0.176

Block 4 — technique: RNA Bind-n-Seq; form: RNA; medium: in vitro; concentration: 90 pmol; notes: 4-mer, random 30-nt RNA, single round; added: 3 µM DMDA-PatA, 2 mM ADP, 2 mM phosphate; reference: input library; direction: higher = stronger binding
Target: Eukaryotic initiation factor 4A-I (EIF4A1, Homo sapiens, UniProt P60842, residues 1-406, full length assumed)
Sequence of UniProt P60842 (whole entry, looked up): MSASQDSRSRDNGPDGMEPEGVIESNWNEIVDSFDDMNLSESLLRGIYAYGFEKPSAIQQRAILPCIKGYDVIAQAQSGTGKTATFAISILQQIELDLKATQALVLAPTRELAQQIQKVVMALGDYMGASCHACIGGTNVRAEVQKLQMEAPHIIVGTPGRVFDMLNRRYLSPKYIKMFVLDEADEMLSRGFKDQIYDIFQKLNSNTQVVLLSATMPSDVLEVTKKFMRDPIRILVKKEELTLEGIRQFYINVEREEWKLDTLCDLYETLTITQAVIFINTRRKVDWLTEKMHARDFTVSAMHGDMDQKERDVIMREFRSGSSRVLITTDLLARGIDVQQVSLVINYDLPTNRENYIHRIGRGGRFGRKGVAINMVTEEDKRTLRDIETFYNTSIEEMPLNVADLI
Oligonucleotide | 4-mer enrichment [fold]
CUCA | 0.604
UUCG | 0.696
GUAU | 1.12
UGCG | 1.66
UCAG | 0.883
CUGC | 0.731
GACU | 0.674
AACG | 0.731
CAUC | 0.635
CGCU | 0.685
UCAC | 0.59
GAGU | 1.82
CAUG | 0.819
GCUU | 0.624
GGAC | 0.691
UGCA | 0.832
AGGC | 1.07
GCGU | 1.94

Block 5 — technique: DHFR PCA, deep sequencing; medium: yeast; added: (+)-ABA 200 µM; reference: wild-type fitted maximum; direction: higher = stronger binding
Target: ABI1, truncated, D143A, DHFR fusion (Arabidopsis thaliana)
Notes: methotrexate growth selection, single substitutions
Starting sequence: PYL1, truncated, DHFR fusion (Arabidopsis thaliana); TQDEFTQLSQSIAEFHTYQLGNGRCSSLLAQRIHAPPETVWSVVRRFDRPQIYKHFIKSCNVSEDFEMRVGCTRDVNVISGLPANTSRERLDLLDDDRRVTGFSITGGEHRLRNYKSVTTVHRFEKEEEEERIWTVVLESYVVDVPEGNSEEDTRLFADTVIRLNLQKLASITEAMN
Change | relative binding score [%]
L29P | -11.1
I162M | 31.2
I133G | 116
D96T | 38.8
R98S | 88.5
D92F | 56.2
V76L | 98.1
E174P | 65
L169P | 7.13

Block 6 — technique: protein-binding microarray; form: double-stranded DNA, one strand shown; medium: in vitro; concentration: 0.8 µM; notes: whole 60-bp probe, no competitor; direction: higher = stronger binding
Target: Centromere-binding protein 1, full length, N-terminal tag (CBF1, Saccharomyces cerevisiae, UniProt P17106, residues 1-351)
Sequence of UniProt P17106 (whole entry, looked up): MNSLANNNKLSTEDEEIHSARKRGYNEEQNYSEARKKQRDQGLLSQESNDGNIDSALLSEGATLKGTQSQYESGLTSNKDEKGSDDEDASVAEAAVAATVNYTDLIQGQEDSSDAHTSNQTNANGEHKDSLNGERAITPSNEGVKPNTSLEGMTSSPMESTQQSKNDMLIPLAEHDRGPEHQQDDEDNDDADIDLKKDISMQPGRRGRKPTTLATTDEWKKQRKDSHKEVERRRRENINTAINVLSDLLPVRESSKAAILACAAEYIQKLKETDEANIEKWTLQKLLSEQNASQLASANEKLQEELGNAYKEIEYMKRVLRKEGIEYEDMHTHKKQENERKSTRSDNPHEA
Oligonucleotide | fluorescence intensity [a.u.]
GAATCTCGGTTGAGCAACGTGAAAAACCTTCCATAGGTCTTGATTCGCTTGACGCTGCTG | 532
TGTACGAAGCTATAACGTGACATTATAGTAGTTAGGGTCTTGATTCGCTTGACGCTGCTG | 1960
GAACCGTGCCTGCACCTCGTGTATCGTGATGCGTAGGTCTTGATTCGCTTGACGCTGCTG | 1230
CTAACTACTCGCCATCATGAGATTACGACATCTTTCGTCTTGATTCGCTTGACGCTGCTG | 532
CTACGATTATCTGATCACATTTAACAGAGAAATTTCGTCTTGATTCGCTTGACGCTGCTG | 744
CTACTTTGGCACATGTTCGTGATACCTTCGTCTTTCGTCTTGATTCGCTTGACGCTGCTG | 1160
CTATTTTGACAACGTGATGAGGTAATCTTCTGTTTCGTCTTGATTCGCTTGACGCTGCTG | 2950
CTATACTGCCTTTATCATGTGACTGAACTACGCTTCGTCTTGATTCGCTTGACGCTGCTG | 3840
GAAATAATGAATACGCACATGAAACATAAAGGGTAGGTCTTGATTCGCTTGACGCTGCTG | 620
CTATATACGCGGCACCTGAGCAGCACATTAGGTTTCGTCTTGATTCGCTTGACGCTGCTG | 631
CTAAAAAGTGTCAATCACCTGGATGCATAAGGATTCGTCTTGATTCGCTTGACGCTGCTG | 601
GAATGAACCCAATTTCACGATATTTTAATATTCTAGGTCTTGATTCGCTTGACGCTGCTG | 512
CTATTAAATATAAGAATCACCACGTTTCAGGTCTTCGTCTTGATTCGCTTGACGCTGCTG | 581
GAAGAAAATGTTCATCACCTCCGCTAGTGGCAATAGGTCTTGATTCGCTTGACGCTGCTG | 522
CTAGTTGTTCTTGCTTCGCTGATGTTTATCAATTTCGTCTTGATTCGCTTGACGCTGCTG | 508
CTATAGAGCTACTATCACATGTTGAACCTTGAATTCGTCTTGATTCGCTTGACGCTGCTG | 1120
GAAGCAAAAAGATTTCACGTTGTTCGGGAGGTATAGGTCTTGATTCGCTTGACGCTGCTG | 555
TGTACGAAGCTATATCACCAGTATATAGTAGTTAGGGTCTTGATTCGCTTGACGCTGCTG | 522
GAACAAGATTATGTTCTCGTGATTGACAACTTATAGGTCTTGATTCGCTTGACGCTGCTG | 1540
GAATGCCATGGAGTTGTCGTGATCCAGTTAAATTAGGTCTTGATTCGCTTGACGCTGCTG | 617
CTAATCACTTTTGATCACGTGCCTCGGGTGGAATTCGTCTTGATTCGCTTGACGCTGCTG | 28200
CTAATATTATACGAAAACGTGCAGAACGGCACATTCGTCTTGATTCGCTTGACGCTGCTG | 680
GAACCTCTTTTCCACCCCGTGAAAAACAGAATATAGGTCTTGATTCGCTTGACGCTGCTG | 652
GAATCAATCATTATGGTGGTGATGATCCGTTTTTAGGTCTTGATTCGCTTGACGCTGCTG | 541

Block 7 — technique: protein-binding microarray; form: hairpin DNA; medium: in vitro; concentration: not given; reference: not given; direction: higher = stronger binding
Target: Interferon regulatory factor 1, DNA-binding domain (IRF1, Homo sapiens, UniProt P10914, residues 1-114)
Notes: whole hairpin DNA, median over replicate spots
Residues (chain): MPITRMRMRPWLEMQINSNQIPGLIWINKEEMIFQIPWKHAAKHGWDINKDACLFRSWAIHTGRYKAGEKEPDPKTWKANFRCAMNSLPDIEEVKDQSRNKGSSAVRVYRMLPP
Oligonucleotide | median fluorescence
GAGGCCCGAAAGCGAAACGCCTCCTGGCGTTTCGCTTTCGGGCCTCACAC (5mC at 7) | 1570 a.u.
GAGGCCCCGAAGCGAAACGCCTCCTGGCGTTTCGCTTCGGGGCCTCACAC (5mC at 38) | 574 a.u.
GAGGCCCGCAAGCGAAACGCCTCCTGGCGTTTCGCTTGCGGGCCTCACAC | 576 a.u.
GAGGCCGGAAAGTGAAACGCCTCCTGGCGTTTCACTTTCCGGCCTCACAC (5mC at 40) | 1280 a.u.
GAGGCCCGAAAGTGAAACGCCTCCTGGCGTTTCACTTTCGGGCCTCACAC | 2230 a.u.
GAGGCCCGGAAGTGAAACGCCTCCTGGCGTTTCACTTCCGGGCCTCACAC | 793 a.u.
GAGGCCCGAAAGCGACGCGCCTCCTGGCGCGTCGCTTTCGGGCCTCACAC | 526 a.u.
GAGGCCCGACGGTGAAACGCCTCCTGGCGTTTCACCGTCGGGCCTCACAC (5mC at 36) | 500 a.u.
GAGGCCCGAAAGTGCAACGCCTCCTGGCGTTGCACTTTCGGGCCTCACAC | 547 a.u.
GAGGCCCGAAATCGAAACGCCTCCTGGCGTTTCGATTTCGGGCCTCACAC | 2280 a.u.
GAGGCCCGAAAGTGACGCGCCTCCTGGCGCGTCACTTTCGGGCCTCACAC (5mC at 16 30) | 520 a.u.
GAGGCCCGAAAGCGAAAGGCCTCCTGGCCTTTCGCTTTCGGGCCTCACAC (5mC at 29) | 959 a.u.
GAGGCCCGAAAACGAAACGCCTCCTGGCGTTTCGTTTTCGGGCCTCACAC | 1770 a.u.
GAGGCCCGAAAGTGAAACGCCTCCTGGCGTTTCACTTTCGGGCCTCACAC (5mC at 18) | 2200 a.u.
GAGGCCCGACGGCGAAACGCCTCCTGGCGTTTCGCCGTCGGGCCTCACAC | 534 a.u.

Some of these lines once more (block 7):
Oligonucleotide | median fluorescence
GAGGCCCGAAAGCGAAACGCCTCCTGGCGTTTCGCTTTCGGGCCTCACAC (5mC at 7) | 1570 a.u.
GAGGCCCCGAAGCGAAACGCCTCCTGGCGTTTCGCTTCGGGGCCTCACAC (5mC at 38) | 574 a.u.
GAGGCCCGCAAGCGAAACGCCTCCTGGCGTTTCGCTTGCGGGCCTCACAC | 576 a.u.
GAGGCCGGAAAGTGAAACGCCTCCTGGCGTTTCACTTTCCGGCCTCACAC (5mC at 40) | 1280 a.u.
GAGGCCCGAAAGTGAAACGCCTCCTGGCGTTTCACTTTCGGGCCTCACAC | 2230 a.u.
GAGGCCCGGAAGTGAAACGCCTCCTGGCGTTTCACTTCCGGGCCTCACAC | 793 a.u.
GAGGCCCGAAAGCGACGCGCCTCCTGGCGCGTCGCTTTCGGGCCTCACAC | 526 a.u.
GAGGCCCGACGGTGAAACGCCTCCTGGCGTTTCACCGTCGGGCCTCACAC (5mC at 36) | 500 a.u.
GAGGCCCGAAAGTGCAACGCCTCCTGGCGTTGCACTTTCGGGCCTCACAC | 547 a.u.
GAGGCCCGAAATCGAAACGCCTCCTGGCGTTTCGATTTCGGGCCTCACAC | 2280 a.u.
GAGGCCCGAAAGTGACGCGCCTCCTGGCGCGTCACTTTCGGGCCTCACAC (5mC at 16 30) | 520 a.u.
GAGGCCCGAAAGCGAAAGGCCTCCTGGCCTTTCGCTTTCGGGCCTCACAC (5mC at 29) | 959 a.u.
GAGGCCCGAAAACGAAACGCCTCCTGGCGTTTCGTTTTCGGGCCTCACAC | 1770 a.u.
GAGGCCCGAAAGTGAAACGCCTCCTGGCGTTTCACTTTCGGGCCTCACAC (5mC at 18) | 2200 a.u.
GAGGCCCGACGGCGAAACGCCTCCTGGCGTTTCGCCGTCGGGCCTCACAC | 534 a.u.
